Results collected from several papers.
Numbered parts are unrelated; each lists some results of a single study. Positions count from the first letter of the parent shown.

Set 1
Target: RNA binding protein fox-1 homolog 2, RRM domain, GST-SBP tag (RBFOX2, Homo sapiens, UniProt O43251-10, residues 100-194)
Method: RNA Bind-n-Seq
Form: RNA
Matrix: in vitro
Tested at: 365 nM
Setting: natural RNA segment, single round, ends assumed
Reference: no-protein control
Direction: higher = stronger binding
All sequences stand within: GGGAGUUCUACAGUCCGACGAUC … UGGAAUUCUCGGGUGCCAA
Residues (chain): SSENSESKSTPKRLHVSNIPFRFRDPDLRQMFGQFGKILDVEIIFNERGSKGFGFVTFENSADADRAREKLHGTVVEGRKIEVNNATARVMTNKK
Strand	RBNS enrichment (R)
AUAUUCCAAAAGUUACAGGAUAGAUGUAAAUCAAUAAAGUCAUUUGGCUGUGUUUUAGACAGCUCCAGAAUAUAUUGUUCAGCGCAGUAAAAUAUAUUUGGAAUUUGAUG	0.66
CUUGUAUCACAACUAAUUUCAGCUGAGAGUUCAGCCUUGGGAGAAAGCACACCAUGGUGGGAGAGGUGUGGCAGGCAUUGCUCGAGCAUCCUGGCUCUCCCAUGCCUCCC	1.02
ACACUGUCUUUGUACAUUUCAGAGCUUUGGUCUCCUGAGUGGGCCUCCUUUUCCCACUGUGCCAGGGAAGGUAGGUUUCUCUGGCUGACUGAGUACUGUGAGUGAGGCAA	0.381
AAACCCAAAACAAACAAACAAGACGAAGGGCAGCACUGGGAAGGUUUUGUAACCUUUAGUGGGUUCCACGGUUGAGAUUUAGCACUGGAGCCAGGCAUGGUGGUAUACUC	1.03
UAUUUGCACAGUUUUUGCGUCUUGUUUGCUUCUUGCAUCUGAUUAACUAGAAUAUUUCUCUUUCCCCCUUUUAAUUUGUGAUGUCACUUGACCCCAUUUAUGUGUAGGAG	4.34
AGCUAACUGGAUUUGGGUAUAUGCCCUUUAAGUUAAAAAUAAUAUGUAUUUCUAAUUUGCAUAUUUAAUUUUGUCAACACUAAGAAAUGUUCAUGUGUUGAAUUUGUAAA	0.94
GUAGAGUGCAUUCCGGUGUGGGUGCCAAUGAACUAGCUGCGAGCUGCUGUCAGAGUGGGAGCAGACUCAUCAGCCUUGGCAGAGAAAGAGUGCCCUUCAGGCUGUCAGGU	0.464
AAAACCUUCUGUAAUAUAUUUAAAUAUAUAUUUUUAAGAGAGAUGCUACAUUGCCAAUGAUUUUAUAAAUAAUUUAAAAUUAAUUUACAAAUUUAUAGAUGCAAACCAAA	0.862
ACGGCACCUUCUUGAAAAGGAAGCAUUUGAACUUGUUCCUCCCUAUAGUUCUAUUGCCUUAUAUGCAAAAUUGUACCCUGUUGCUCAGAGAAAUUAUUCAUAAGAGAAAA	0.42
AUGAGUGCCAAUGUGUCAUUUAGUAAAACUUAAAUAGAAACAAGGUCCUUCAAAUGUUCCUUUGGCCAAAAGCUGAAGGGAGUUACUGAGAAAAUAGUUAACAAUUACUG	0.237
GCAGACACCUGUGCACCCCAUGAGUAGUGCCCACUUGAGGCUGGCACUCCCCUGACCUCACCUUUGCAAAGUUACAGAUGCACCCCAACAUUGAGAUGUGUUUUUAAUGU	0.572
UAAAUCAAUUCUUCAACCCUUGGGUGUGUGAGUUUGAGGCAGGGUCAUUUGUGUGAUGUGUUUGGCCUUACCAAAGCAAAAGAGGGUGCAAGAAUGUGGGAGUAUGUCUG	2.39

Set 2
Target: Histone acetyltransferase KAT6A, winged helix 2, GST fusion (KAT6A, Homo sapiens, UniProt Q92794, residues 85-181)
Method: protein binding microarray
Form: double-stranded DNA, one strand shown
Matrix: in vitro
Tested at: not given
Setting: 8-mer, flanks averaged, mean of 2 arrays, mostly near background
Reference: not given
Direction: higher = stronger binding
Construct (chain): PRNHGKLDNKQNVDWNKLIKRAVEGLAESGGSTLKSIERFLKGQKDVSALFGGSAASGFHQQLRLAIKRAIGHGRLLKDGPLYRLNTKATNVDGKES
Strand	E-score
ATGCCCGC	0.12
GTGACAGA	0.0541
CGCTACAC	-0.0895
GCCGGCCC	0.237
CAGAAAGG	0.0571
GGTCCCTA	-0.137
CGTTCCTA	-0.0194
TATCAGAA	0.199
AACGTTCC	-0.252
ACGTTGAG	-0.232
ACTAGTGA	-0.225
GAGGACCC	-0.114
CGGTACAG	0.0462
CTCACTGA	0.0532

Set 3
Target: CCNB3, cyclin fold, Cln2 fusion (human)
Method: yeast growth competition, sequencing
Matrix: yeast
Setting: weak parent motif
Reference: not given
Direction: higher = stronger binding
Starting sequence: ORC1 docking peptide (human); PRARKRLELGNLG; partner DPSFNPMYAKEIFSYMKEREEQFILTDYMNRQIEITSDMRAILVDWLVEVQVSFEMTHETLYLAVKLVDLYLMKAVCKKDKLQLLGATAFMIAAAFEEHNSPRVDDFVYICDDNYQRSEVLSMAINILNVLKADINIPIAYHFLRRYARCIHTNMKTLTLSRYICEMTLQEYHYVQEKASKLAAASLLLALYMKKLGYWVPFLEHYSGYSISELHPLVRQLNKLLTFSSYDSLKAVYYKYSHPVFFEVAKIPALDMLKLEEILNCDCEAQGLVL
Substitution	normalised enrichment score
G10L	0.615
P1N	0.383
A3G	-0.443
L12P	0.416
E8T	-0.356
K5N	0.232

Further values, each from its own experiment
Substance	target	assay	test system	conditions	how to read	measurement	value
PhoQ, residues 284 288 289 292 302 303 NSMLDC	PhoP, residues 12 14 15 18 19 NMSSL (Escherichia coli, UniProt P23836)	Sort-seq, item: YFP reporter	E. coli	PhoQ-PhoP variant library, with: 10 µM Mg2+	reference: high Mg2+ state, higher = stronger signaling	fold induction	7

A few entries again (set 1):
Strand	RBNS enrichment (R)
AUGAGUGCCAAUGUGUCAUUUAGUAAAACUUAAAUAGAAACAAGGUCCUUCAAAUGUUCCUUUGGCCAAAAGCUGAAGGGAGUUACUGAGAAAAUAGUUAACAAUUACUG	0.237
AGCUAACUGGAUUUGGGUAUAUGCCCUUUAAGUUAAAAAUAAUAUGUAUUUCUAAUUUGCAUAUUUAAUUUUGUCAACACUAAGAAAUGUUCAUGUGUUGAAUUUGUAAA	0.94
